# Experimental data pooled from the literature.
# Each numbered part is a random draw from the data of one study; scales do not carry over between parts.
# Sequence of UniProt P08172 (whole entry, looked up): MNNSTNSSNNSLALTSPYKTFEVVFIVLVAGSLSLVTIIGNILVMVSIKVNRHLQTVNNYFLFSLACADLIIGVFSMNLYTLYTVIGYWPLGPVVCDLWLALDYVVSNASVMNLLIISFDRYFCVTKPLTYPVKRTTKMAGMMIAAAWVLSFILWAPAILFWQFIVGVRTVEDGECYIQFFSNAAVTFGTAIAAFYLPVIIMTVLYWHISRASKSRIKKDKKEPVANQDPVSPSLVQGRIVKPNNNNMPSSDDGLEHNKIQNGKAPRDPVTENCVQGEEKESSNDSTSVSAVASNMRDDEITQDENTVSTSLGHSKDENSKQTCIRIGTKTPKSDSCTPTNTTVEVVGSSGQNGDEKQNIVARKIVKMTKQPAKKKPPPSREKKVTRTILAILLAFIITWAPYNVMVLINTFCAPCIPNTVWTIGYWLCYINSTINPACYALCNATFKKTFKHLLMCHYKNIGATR
# Sequence of UniProt P18825 (whole entry, looked up): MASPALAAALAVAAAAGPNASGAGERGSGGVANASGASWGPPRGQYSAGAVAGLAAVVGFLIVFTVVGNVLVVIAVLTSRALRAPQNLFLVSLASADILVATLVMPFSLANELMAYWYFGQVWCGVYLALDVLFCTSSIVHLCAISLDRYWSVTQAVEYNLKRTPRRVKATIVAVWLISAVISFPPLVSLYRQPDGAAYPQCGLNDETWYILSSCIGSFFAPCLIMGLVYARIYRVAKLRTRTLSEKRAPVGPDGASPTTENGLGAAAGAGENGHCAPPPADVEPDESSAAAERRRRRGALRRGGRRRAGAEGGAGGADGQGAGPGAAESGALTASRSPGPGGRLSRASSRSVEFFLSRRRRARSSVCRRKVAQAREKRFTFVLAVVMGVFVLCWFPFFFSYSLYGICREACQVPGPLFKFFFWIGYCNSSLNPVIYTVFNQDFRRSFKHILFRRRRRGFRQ
# Sequence of UniProt P21917 (whole entry, looked up): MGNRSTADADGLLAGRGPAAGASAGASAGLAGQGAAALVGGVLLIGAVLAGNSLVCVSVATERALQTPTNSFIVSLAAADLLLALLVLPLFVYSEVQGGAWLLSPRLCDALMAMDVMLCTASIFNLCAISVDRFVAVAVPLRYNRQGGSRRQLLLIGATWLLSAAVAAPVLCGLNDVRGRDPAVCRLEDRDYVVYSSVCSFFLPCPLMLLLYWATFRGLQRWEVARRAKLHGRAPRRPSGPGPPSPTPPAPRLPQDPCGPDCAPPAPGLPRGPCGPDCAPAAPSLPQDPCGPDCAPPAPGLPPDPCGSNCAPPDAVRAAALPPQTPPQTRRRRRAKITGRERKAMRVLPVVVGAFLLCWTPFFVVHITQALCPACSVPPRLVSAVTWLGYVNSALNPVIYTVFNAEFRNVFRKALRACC
# Sequence of UniProt P50406 (whole entry, looked up): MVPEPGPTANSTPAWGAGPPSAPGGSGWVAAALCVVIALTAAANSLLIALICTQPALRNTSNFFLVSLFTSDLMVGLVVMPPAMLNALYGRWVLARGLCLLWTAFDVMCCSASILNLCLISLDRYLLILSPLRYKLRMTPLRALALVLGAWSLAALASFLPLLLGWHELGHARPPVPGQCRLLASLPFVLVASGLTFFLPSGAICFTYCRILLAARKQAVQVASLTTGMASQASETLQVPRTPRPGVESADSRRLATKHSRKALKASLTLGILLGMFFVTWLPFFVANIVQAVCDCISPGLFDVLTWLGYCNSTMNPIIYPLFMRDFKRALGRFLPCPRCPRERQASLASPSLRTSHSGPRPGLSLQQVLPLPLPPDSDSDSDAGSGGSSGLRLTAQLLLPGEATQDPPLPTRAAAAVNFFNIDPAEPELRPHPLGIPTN
# Sequence of UniProt Q99720 (whole entry, looked up): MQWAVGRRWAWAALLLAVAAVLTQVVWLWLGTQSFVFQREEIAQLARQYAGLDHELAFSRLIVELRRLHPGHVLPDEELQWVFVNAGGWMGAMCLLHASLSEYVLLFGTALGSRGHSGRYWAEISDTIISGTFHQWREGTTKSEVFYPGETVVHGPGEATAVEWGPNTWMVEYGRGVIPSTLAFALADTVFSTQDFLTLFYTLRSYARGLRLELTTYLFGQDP
# Sequence of UniProt P46098 (whole entry, looked up): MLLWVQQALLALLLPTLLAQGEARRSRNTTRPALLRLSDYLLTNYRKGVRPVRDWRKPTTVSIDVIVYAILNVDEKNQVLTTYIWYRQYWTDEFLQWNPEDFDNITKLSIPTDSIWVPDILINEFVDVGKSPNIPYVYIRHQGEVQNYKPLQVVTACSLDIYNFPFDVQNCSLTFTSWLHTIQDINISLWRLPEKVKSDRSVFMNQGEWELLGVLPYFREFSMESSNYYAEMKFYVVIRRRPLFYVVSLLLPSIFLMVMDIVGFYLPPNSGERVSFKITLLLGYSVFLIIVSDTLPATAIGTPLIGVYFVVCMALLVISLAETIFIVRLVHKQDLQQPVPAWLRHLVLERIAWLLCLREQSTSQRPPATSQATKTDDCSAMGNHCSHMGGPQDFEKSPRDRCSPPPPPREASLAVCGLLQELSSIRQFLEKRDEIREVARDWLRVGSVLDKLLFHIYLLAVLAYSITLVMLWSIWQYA
# Sequence of UniProt P08913 (whole entry, looked up): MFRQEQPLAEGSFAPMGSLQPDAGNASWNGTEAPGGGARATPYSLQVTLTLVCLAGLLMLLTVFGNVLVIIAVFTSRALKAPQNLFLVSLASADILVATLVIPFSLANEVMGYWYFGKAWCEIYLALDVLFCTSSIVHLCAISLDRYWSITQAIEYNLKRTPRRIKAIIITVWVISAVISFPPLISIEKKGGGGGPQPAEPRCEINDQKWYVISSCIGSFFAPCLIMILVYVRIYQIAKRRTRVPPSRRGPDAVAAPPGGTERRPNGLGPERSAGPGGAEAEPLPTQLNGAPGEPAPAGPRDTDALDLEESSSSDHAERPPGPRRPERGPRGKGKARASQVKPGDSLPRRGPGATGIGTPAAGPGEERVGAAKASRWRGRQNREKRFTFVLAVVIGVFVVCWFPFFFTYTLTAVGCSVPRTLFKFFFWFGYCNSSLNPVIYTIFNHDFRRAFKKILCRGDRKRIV
# Sequence of UniProt P07550 (whole entry, looked up): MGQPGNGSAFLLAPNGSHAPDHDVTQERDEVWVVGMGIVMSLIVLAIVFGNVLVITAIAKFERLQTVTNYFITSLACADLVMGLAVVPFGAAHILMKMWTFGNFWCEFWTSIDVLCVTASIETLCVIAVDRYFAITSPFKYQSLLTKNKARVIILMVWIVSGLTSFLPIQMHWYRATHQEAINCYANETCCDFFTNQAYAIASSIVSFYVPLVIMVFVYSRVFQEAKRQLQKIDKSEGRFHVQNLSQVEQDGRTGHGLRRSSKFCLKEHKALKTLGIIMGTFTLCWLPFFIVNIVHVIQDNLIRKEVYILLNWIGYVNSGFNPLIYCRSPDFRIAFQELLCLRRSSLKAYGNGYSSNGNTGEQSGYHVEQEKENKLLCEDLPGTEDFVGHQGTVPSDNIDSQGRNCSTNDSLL

# Sample 1 — observed: enzyme activity; action: inhibitor; tested at: 0.5 µM; baseline: control
# Target: NT-3 growth factor receptor (NTRK3, Homo sapiens, UniProt Q16288)
# Sequence of UniProt Q16288 (whole entry, looked up): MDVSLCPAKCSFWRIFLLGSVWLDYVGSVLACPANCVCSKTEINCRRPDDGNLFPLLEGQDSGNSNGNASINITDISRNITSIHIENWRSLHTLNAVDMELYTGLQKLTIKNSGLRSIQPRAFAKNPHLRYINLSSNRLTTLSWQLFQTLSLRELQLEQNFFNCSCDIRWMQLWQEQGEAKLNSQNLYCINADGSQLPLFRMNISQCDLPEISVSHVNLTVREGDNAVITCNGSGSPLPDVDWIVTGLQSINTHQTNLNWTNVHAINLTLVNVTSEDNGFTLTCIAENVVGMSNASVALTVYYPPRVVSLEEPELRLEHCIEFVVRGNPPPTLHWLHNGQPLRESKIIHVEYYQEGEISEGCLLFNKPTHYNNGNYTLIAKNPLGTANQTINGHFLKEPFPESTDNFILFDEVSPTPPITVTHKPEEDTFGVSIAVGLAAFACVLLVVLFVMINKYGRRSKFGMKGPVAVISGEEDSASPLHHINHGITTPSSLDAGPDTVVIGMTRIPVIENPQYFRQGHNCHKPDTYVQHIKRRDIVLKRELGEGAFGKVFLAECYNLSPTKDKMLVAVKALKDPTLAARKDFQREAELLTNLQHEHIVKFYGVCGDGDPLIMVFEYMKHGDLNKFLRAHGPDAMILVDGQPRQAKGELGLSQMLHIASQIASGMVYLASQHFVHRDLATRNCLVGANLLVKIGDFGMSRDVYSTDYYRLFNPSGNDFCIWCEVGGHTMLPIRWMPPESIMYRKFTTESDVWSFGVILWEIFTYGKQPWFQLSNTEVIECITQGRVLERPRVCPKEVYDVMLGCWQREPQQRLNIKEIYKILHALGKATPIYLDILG
Compound,remaining activity [%]
COc1cc2ncnc(Nc3ccc(Oc4ccccc4)cc3)c2cc1OC,99.7
O=S(=O)(c1cccc2cnccc12)N1CCCNCC1,85.5
O=c1c2ccccc2[nH]c(=S)n1CCN1CCC(=C(c2ccc(F)cc2)c2ccc(F)cc2)CC1,98.9
Oc1ccc(-c2nc(-c3ccncc3)c(-c3ccc(F)cc3)[nH]2)cc1,101
Cc1nc(-c2ccccc2)c(-c2ccncc2)o1,105
COc1ccc(OC)c2c(=S)c3ccccc3[nH]c12,93.6
Nc1ncnc2n[nH]c(Nc3ccc(F)cc3)c12,81.5
CC(C)[C@H](CO)Nc1nc(Nc2cc(N)cc(Cl)c2)c2ncn(C(C)C)c2n1,4.42
O=C(O)c1ccc2c3c1cccc3c(=O)n1c3ccccc3nc21,67.1
O=C(CCCc1ccc(-c2ccccc2F)cc1)Nc1ccc(O)cc1,96.3
Nc1[nH]nc2nc3ccccc3nc12,92.1
O=C(Nc1cccc(Nc2cc(Nc3cccc(C(F)(F)F)c3)ncn2)c1)C1CC1,95.1
Cc1ccc(NC(=O)c2ccc(CN3CCN(C)CC3)cc2)cc1Nc1nc(-c2cccnc2)cs1,94.1
N#CC(C#N)=C(N)/C(C#N)=C/c1ccc(O)cc1,95.5
O=C1NC(=O)C(c2cn(CCCn3ccnc3)c3ccccc23)=C1Nc1ccccc1,40
Cn1c2ccccc2c2c3c(c4c5ccccc5n(CCC#N)c4c21)CNC3=O,0.198
COc1ccc(CNC(=O)Nc2ncc([N+](=O)[O-])s2)cc1,98.7
C#Cc1cccc(Nc2ncnc3cc(OCCOC)c(OCCOC)cc23)c1,96
Nc1ccc2ncnc(NCCc3ccc(Oc4ccccc4)cc3)c2c1,98.4

# Sample 2 — tested at: 10 µM
# SMILES: O=C(NCc1ncc(C(F)(F)F)cc1Cl)c1ccc2c(c1)C1(CCS(=O)(=O)CC1)[C@H](C1CC1)N2S(=O)(=O)c1ccc(F)cc1
target,test,inhibition [%]
"CHRM2 (Homo sapiens, UniProt P08172)",ligand displacement,8.38
"ADRA2C (Homo sapiens, UniProt P18825)",ligand displacement,12.8
"DRD4 (Homo sapiens, UniProt P21917)",ligand displacement,1.57
"HTR3A (Homo sapiens, UniProt P46098)",cell-free assay,1.44
"ADRA2A (Homo sapiens, UniProt P08913)",ligand displacement,-5.62
"ADRB2 (Homo sapiens, UniProt P07550)",ligand displacement,-16.8
"HTR6 (Homo sapiens, UniProt P50406)",ligand displacement,-13.8
"SIGMAR1 (Homo sapiens, UniProt Q99720)",ligand displacement,17.8

# Sample 3 — cell line: mouse MPNST tumor cells; technique: high-content nuclear imaging; item: cell number; tested at: 10 µM; time: 12 h; setting: mean of 2 replicates; baseline: plate mean; direction: higher = more cells
SMILES,nuclei count [z-score]
Cc1cc(=O)oc2c(C=O)c(O)ccc12,0.186
Cc1cc([C@@H](C)Nc2ccccc2C(=O)O)c2nc(N3CCOCC3)cc(=O)n2c1,0.77
Nc1c2ccccc2nc2ccccc12,-4.24
COc1ccc(C2(CNC(=O)c3ccc(NC(=O)c4ccco4)cc3)CCOCC2)cc1,-0.146
COc1ccccc1Nc1nc(-c2sc(NC(C)=O)nc2C)cs1,0.578
Nc1ncnc2c1c(-c1cnc3[nH]ccc3c1)nn2C1CCCC1,0.105

# Sample 4 — species: human; matrix: microsomes or S9; tested at: 2 µM; time: 0.5 h
SMILES,remaining compound
c1ccc2c(-c3ccc4[nH]ncc4c3)csc2c1,21.2%
O=C(Nc1ccc2[nH]ncc2c1)c1csc2ccccc12,77.1%
CC(=O)CC1c2ccc(Br)cc2NC(C)(C)C(=O)N1OCc1ccccc1 (stereo not shown),91.2%
O=C(Cn1nnc(-c2ccc(F)cc2)n1)N[C@H]1C[C@@H]2OCC[C@H]12,79.9%
CCn1nccc1CN(C)S(=O)(=O)c1ccc(Br)s1,44%
Cc1ccc(-c2nc3scc(CCNS(=O)(=O)c4ccc(Br)cc4)n3n2)cc1,6.18%
N#Cc1nc(N2CCCC2)nc(N(c2ccccc2)c2ccccc2)n1,20.2%
